Measured values from different studies.
A part holds a random share of what one study measured. Positions count from the first letter of the parent shown.
Sequence of UniProt P30291 (whole entry, looked up): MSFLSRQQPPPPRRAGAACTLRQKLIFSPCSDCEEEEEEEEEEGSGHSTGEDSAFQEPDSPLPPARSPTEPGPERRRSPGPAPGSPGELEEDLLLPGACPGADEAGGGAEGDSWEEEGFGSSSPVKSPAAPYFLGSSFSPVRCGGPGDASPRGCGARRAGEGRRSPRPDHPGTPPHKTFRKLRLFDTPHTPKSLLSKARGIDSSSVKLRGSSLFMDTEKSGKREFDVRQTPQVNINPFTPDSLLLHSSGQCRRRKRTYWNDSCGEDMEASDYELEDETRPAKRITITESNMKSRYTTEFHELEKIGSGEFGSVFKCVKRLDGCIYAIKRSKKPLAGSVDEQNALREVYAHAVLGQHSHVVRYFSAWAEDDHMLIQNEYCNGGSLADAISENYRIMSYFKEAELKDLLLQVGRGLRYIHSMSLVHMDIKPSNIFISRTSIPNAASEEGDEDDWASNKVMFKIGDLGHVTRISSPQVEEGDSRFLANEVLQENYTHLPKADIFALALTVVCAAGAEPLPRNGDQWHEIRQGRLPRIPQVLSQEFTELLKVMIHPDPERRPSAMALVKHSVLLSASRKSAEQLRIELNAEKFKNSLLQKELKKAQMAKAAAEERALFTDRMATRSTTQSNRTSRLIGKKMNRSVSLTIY
Sequence of UniProt Q96PY6 (whole entry, looked up): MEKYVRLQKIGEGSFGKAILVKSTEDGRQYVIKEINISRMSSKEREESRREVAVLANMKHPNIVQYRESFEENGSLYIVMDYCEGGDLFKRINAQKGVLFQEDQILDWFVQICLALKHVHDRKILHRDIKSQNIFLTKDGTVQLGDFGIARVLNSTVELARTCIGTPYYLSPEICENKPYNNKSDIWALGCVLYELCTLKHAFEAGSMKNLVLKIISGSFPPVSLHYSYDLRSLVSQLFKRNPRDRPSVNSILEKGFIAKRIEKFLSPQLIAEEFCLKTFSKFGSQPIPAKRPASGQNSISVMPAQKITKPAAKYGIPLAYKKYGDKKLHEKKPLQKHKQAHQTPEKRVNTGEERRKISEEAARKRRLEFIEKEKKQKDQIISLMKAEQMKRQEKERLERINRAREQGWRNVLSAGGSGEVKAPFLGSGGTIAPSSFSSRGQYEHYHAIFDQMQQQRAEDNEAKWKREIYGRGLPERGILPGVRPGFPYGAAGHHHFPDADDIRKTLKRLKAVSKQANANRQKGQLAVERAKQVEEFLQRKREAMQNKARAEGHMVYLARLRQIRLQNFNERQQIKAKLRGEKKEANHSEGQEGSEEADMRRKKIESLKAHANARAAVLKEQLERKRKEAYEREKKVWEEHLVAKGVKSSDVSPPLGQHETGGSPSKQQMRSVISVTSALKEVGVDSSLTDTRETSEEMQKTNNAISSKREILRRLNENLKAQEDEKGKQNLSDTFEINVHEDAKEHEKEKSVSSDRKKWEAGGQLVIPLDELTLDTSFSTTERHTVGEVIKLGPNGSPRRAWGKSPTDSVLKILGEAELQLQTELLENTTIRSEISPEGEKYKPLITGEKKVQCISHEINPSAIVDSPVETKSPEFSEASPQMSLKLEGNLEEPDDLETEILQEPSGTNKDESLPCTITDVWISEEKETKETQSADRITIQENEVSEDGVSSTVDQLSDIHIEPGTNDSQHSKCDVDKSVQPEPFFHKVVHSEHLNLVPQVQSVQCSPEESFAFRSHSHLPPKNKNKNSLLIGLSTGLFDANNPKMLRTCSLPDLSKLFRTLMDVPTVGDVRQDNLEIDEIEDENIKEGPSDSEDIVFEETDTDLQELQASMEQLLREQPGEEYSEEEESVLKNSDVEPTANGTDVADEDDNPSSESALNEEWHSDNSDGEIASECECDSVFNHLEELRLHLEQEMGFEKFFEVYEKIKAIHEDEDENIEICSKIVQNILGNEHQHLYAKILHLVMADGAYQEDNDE
Sequence of UniProt O15111 (whole entry, looked up): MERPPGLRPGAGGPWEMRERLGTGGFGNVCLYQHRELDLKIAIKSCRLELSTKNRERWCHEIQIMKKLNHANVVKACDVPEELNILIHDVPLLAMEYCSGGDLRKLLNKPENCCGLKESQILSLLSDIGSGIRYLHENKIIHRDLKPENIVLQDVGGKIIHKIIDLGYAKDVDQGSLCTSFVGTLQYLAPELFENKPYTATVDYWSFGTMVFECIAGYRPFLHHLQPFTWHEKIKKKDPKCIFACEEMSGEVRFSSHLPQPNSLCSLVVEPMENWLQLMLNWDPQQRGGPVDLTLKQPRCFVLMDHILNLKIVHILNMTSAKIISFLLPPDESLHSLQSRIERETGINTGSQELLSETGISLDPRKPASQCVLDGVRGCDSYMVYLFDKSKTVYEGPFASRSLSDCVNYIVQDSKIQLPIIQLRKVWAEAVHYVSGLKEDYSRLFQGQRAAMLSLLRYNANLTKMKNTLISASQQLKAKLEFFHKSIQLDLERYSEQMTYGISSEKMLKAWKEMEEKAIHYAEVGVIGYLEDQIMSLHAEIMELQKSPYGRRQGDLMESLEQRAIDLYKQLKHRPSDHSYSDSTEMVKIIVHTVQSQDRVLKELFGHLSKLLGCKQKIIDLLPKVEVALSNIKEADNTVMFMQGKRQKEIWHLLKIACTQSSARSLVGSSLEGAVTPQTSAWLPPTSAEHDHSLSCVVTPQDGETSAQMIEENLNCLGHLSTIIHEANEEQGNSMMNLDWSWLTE
Sequence of UniProt Q9Y6M4 (whole entry, looked up): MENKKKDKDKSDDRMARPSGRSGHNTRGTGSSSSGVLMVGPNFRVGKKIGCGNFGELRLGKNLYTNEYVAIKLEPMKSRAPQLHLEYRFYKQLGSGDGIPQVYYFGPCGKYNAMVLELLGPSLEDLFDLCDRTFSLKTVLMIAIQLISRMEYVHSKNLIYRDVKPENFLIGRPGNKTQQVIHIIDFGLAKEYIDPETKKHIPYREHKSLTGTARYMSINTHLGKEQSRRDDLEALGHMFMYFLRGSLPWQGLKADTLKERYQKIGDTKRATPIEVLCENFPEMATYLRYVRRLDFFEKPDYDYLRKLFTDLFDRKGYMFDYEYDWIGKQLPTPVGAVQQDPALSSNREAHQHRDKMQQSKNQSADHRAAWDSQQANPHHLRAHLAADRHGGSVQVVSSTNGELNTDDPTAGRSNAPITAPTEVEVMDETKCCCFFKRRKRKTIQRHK
Sequence of UniProt Q8WTQ7 (whole entry, looked up): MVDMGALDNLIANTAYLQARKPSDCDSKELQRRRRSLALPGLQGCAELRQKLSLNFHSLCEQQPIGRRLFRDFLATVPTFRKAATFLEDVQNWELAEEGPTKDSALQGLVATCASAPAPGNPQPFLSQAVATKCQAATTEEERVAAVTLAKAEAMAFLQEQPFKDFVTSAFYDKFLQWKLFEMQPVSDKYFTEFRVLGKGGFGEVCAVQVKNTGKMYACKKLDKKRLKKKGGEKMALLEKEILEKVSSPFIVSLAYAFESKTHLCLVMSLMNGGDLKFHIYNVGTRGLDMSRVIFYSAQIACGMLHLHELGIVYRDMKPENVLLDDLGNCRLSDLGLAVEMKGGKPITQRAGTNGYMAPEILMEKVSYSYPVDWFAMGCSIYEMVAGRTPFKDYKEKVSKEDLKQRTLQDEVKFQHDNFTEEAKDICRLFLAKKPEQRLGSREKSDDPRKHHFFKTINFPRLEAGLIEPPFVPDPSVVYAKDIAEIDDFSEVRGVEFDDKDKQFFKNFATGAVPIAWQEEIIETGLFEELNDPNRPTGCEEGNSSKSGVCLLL
Sequence of UniProt Q52WX2 (whole entry, looked up): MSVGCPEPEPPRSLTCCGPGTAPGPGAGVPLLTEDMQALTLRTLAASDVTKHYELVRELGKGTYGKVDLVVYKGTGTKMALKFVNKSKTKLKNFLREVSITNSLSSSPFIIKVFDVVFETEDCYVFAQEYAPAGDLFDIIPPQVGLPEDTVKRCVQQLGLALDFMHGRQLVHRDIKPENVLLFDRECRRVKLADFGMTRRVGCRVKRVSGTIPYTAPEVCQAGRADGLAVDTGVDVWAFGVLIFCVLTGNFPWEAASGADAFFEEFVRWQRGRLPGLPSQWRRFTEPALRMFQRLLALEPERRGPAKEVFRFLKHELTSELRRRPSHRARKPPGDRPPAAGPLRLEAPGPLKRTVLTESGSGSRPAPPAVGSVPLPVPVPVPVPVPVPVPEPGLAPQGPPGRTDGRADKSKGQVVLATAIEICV
Sequence of UniProt Q99558 (whole entry, looked up): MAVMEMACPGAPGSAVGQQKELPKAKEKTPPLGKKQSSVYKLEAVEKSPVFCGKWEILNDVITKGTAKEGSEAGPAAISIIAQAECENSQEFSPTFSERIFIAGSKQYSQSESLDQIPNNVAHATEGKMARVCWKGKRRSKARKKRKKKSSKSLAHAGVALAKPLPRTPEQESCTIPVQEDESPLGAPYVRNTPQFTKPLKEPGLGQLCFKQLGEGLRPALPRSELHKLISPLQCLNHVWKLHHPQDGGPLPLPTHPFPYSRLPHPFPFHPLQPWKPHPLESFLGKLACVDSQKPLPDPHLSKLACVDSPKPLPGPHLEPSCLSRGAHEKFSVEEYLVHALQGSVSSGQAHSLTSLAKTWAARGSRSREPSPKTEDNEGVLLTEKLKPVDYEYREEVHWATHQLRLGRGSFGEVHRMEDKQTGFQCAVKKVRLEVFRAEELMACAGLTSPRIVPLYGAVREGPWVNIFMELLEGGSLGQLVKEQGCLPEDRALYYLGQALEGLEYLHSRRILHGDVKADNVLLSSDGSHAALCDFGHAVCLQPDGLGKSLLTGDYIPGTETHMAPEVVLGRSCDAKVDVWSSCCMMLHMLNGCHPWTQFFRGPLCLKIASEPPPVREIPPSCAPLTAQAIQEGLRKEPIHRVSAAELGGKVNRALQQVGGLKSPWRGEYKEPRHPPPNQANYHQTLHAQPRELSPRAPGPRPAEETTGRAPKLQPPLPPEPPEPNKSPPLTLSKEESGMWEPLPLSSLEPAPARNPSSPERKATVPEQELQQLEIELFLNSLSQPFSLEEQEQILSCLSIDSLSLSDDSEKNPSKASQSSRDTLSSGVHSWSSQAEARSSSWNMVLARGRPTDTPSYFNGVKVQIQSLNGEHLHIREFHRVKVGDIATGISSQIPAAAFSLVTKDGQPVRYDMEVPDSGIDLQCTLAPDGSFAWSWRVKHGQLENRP

Study 1 — observed: enzyme activity; mode: inhibitor; tested at: 0.5 µM; reference: control
Structure (SMILES): CC(=O)O/N=C1/C(c2c(O)[nH]c3cc(Br)ccc23)=Nc2ccccc21
| target | remaining activity |
| --- | --- |
| NEK1 (Homo sapiens, UniProt Q96PY6) | 94.7% |
| CSNK1G3 (Homo sapiens, UniProt Q9Y6M4) | 101% |
| GRK7 (Homo sapiens, UniProt Q8WTQ7) | 99.5% |
| ABL2 (Homo sapiens, UniProt P42684) | 26.4% |
| RPS6KA2 (Homo sapiens, UniProt Q15349) | 51% |
| MERTK (Homo sapiens, UniProt Q12866) | 77% |
| MAP3K14 (Homo sapiens, UniProt Q99558) | 75.7% |
| ULK2 (Homo sapiens, UniProt Q8IYT8) | 92.2% |
| ACVR1B (Homo sapiens, UniProt P36896) | 98.2% |
| FRK (Homo sapiens, UniProt P42685) | 51.2% |
| WEE1 (Homo sapiens, UniProt P30291) | 93.7% |
| MAP2K2 (Homo sapiens, UniProt P36507) | 83.1% |
| LCK (Homo sapiens, UniProt P06239) | 53.5% |
| NEK6 (Homo sapiens, UniProt Q9HC98) | 100% |

Study 2 — method: competition with immobilised ligand; tested at: 1 µM
Structure (SMILES): CNC(=O)Nc1ccc2c(c1)[C@@]1(CC2)OC(=O)N(CC(=O)N(Cc2ccc(F)cc2)[C@@H](C)C(F)(F)F)C1=O
| target | test | remaining binding [%] |
| --- | --- | --- |
| SBK1 (Homo sapiens, UniProt Q52WX2) | cell-free assay | 75 |
| WEE1 (Homo sapiens, UniProt P30291) | cell-free assay | 100 |
| CDK13 (Homo sapiens, UniProt Q14004) | cell-free assay | 92 |
| NEK3 (Homo sapiens, UniProt P51956) | cell-free assay | 69 |
| BMP2K (Homo sapiens, UniProt Q9NSY1) | cell-free assay | 100 |
| CHUK (Homo sapiens, UniProt O15111) | cell-free assay | 100 |
| FLT3 (Homo sapiens, UniProt P36888, D835V/ITD) | cell-free assay | 87 |
| MAP3K3 (Homo sapiens, UniProt Q99759) | cell-free assay | 75 |
| EGFR (Homo sapiens, UniProt P00533, del746-750) | cell-free assay | 85 |
| TXK (Homo sapiens, UniProt P42681) | binding | 100 |
| Tyrosine-protein kinase ABL1, non-phosphorylated (ABL1, Homo sapiens, UniProt P00519, F317L) | cell-free assay | 66 |
| CSNK1A1L (Homo sapiens, UniProt Q8N752) | cell-free assay | 100 |
| MET (Homo sapiens, UniProt P08581, M1250T) | cell-free assay | 100 |

Study 3 — method: aptamer microarray, sandwich; molecule type: DNA with 2'F-ANA; sample: in vitro; tested at: 200 nM; together with: Cy3 exosite-II aptamer, 400 nM; reading: higher = stronger binding; strand: GGTTGGTGTGGTTGG
Target: Prothrombin, mature alpha-thrombin (F2, Homo sapiens, UniProt P00734)
Setting: whole 15-mer aptamer, many near background
| Modification | mean fluorescence intensity |
| --- | --- |
| 2'F-ANA at 2 3 4 6 7 9 12 13 | 506 a.u. |
| 2'F-ANA at 1 3 4 6 7 8 9 11 13 14 15 | 80.8 a.u. |
| 2'F-ANA at 2 4 5 7 8 9 10 12 13 14 15 | 47.8 a.u. |
| 2'F-ANA at 2 3 5 7 8 9 11 13 | 80 a.u. |
| 2'F-ANA at 2 3 4 7 8 10 11 14 | 186 a.u. |
| 2'F-ANA at 1 2 3 4 6 11 13 14 15 | 55.1 a.u. |
| 2'F-ANA at 1 7 9 14 15 | 60.2 a.u. |
| 2'F-ANA at 2 3 14 15 | 490 a.u. |

Study 4 — target: CCNB3, cyclin fold, Cln2 fusion (human); method: yeast growth competition, sequencing; sample: yeast; setting: weak parent motif; reference: not given; reading: higher = stronger binding
Parent: E2F1 docking peptide (human); PPVKRRLDLETDH; partner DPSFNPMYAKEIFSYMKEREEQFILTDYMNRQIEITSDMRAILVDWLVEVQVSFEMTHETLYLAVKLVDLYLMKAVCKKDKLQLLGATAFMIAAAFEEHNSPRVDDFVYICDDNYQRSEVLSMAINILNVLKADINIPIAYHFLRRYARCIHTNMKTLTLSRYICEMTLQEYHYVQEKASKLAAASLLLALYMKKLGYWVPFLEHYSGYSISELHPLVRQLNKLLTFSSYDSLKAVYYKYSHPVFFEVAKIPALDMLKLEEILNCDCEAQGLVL
| Change | normalised enrichment score |
| --- | --- |
| PPVKMRLDLETDH [R5M] | -0.0213 |
| PPVKRRLQLETDH [D8Q] | 0.241 |
| PPVKCRLDLETDH [R5C] | 0.249 |
| SPVKRRLDLETDH [P1S] | 0.416 |
| PPWKRRLDLETDH [V3W] | 0.066 |
| PPVQRRLDLETDH [K4Q] | 0.447 |
| PPVKRRLDLETMH [D12M] | 0.449 |
| PPVSRRLDLETDH [K4S] | 0.553 |

Some of these lines once more (study 3):
| Modification | mean fluorescence intensity |
| --- | --- |
| 2'F-ANA at 2 4 5 7 8 9 10 12 13 14 15 | 47.8 a.u. |
| 2'F-ANA at 2 3 5 7 8 9 11 13 | 80 a.u. |
| 2'F-ANA at 2 3 4 7 8 10 11 14 | 186 a.u. |
| 2'F-ANA at 1 2 3 4 6 11 13 14 15 | 55.1 a.u. |
